Measured values from different studies.
A part holds a random share of what one study measured.
Sequence of UniProt P42336 (whole entry, unmodified, looked up): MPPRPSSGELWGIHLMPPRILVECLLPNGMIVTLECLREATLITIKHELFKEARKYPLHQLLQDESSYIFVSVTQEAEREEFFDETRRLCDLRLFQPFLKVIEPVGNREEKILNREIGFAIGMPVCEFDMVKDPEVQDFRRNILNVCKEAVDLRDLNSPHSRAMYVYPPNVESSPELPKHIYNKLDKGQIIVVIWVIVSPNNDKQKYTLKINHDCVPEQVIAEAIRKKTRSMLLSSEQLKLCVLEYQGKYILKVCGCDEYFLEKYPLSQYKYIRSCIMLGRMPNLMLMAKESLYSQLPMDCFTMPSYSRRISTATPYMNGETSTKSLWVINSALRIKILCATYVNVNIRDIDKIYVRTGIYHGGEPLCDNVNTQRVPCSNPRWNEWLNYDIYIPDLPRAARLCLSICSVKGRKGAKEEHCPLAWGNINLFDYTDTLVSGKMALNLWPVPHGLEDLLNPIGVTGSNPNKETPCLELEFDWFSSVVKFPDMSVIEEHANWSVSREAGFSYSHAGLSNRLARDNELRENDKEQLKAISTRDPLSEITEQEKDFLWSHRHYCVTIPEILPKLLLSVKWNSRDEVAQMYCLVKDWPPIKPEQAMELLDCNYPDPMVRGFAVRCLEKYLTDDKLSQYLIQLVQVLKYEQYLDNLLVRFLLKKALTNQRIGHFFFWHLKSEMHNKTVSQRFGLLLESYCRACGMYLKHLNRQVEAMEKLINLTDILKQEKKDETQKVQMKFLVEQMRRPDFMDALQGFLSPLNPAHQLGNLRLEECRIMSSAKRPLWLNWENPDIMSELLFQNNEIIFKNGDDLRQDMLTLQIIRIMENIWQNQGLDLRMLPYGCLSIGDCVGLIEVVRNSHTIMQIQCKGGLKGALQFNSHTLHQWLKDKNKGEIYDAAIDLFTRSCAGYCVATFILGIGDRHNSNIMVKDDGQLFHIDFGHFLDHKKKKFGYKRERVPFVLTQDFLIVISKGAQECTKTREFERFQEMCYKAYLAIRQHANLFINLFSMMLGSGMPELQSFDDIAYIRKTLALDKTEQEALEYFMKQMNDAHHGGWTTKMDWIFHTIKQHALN
Sequence of UniProt Q9HBY8 (whole entry, looked up): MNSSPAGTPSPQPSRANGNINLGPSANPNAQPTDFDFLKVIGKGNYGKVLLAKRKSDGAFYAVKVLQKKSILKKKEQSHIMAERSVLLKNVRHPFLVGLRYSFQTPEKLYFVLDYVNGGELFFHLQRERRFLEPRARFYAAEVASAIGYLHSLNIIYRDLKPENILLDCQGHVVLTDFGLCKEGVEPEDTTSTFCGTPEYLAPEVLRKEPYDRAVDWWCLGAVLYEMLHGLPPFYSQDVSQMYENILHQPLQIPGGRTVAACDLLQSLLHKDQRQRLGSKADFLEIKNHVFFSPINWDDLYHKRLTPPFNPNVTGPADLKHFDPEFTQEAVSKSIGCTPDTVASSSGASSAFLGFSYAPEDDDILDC
Sequence of UniProt Q9H1R3 (whole entry, looked up): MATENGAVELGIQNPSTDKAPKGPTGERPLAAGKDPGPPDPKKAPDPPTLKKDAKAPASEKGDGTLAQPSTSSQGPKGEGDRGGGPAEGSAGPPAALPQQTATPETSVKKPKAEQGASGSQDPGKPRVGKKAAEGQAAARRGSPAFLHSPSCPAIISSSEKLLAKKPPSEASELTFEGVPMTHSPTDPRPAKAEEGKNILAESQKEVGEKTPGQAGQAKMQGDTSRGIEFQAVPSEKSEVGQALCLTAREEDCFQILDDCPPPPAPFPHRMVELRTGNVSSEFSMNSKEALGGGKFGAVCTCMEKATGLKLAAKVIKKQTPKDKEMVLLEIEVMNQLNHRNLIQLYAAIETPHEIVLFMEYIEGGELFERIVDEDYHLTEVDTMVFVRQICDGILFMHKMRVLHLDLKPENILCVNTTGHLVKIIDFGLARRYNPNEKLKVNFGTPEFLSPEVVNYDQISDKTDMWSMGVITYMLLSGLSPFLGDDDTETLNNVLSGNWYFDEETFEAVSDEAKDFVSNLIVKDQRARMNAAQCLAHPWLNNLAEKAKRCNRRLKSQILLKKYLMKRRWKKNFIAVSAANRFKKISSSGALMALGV
Sequence of UniProt P20794 (whole entry, looked up): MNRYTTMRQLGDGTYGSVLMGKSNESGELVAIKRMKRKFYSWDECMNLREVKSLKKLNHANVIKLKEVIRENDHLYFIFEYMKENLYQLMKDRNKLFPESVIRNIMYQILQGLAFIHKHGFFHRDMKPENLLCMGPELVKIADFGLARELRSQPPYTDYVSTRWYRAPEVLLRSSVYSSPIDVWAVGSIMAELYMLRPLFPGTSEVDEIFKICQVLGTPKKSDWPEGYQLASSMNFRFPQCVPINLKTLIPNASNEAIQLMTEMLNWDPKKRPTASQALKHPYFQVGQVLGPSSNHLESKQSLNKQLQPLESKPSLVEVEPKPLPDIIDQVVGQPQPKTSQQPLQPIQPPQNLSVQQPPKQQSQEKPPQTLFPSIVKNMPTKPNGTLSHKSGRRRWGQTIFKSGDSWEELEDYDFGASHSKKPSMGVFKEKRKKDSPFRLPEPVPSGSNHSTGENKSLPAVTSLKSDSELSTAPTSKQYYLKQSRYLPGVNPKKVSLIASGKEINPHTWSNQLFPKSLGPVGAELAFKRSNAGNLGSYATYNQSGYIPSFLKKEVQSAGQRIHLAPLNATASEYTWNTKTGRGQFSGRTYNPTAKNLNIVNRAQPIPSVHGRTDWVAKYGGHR
Sequence of UniProt P42684 (whole entry, looked up): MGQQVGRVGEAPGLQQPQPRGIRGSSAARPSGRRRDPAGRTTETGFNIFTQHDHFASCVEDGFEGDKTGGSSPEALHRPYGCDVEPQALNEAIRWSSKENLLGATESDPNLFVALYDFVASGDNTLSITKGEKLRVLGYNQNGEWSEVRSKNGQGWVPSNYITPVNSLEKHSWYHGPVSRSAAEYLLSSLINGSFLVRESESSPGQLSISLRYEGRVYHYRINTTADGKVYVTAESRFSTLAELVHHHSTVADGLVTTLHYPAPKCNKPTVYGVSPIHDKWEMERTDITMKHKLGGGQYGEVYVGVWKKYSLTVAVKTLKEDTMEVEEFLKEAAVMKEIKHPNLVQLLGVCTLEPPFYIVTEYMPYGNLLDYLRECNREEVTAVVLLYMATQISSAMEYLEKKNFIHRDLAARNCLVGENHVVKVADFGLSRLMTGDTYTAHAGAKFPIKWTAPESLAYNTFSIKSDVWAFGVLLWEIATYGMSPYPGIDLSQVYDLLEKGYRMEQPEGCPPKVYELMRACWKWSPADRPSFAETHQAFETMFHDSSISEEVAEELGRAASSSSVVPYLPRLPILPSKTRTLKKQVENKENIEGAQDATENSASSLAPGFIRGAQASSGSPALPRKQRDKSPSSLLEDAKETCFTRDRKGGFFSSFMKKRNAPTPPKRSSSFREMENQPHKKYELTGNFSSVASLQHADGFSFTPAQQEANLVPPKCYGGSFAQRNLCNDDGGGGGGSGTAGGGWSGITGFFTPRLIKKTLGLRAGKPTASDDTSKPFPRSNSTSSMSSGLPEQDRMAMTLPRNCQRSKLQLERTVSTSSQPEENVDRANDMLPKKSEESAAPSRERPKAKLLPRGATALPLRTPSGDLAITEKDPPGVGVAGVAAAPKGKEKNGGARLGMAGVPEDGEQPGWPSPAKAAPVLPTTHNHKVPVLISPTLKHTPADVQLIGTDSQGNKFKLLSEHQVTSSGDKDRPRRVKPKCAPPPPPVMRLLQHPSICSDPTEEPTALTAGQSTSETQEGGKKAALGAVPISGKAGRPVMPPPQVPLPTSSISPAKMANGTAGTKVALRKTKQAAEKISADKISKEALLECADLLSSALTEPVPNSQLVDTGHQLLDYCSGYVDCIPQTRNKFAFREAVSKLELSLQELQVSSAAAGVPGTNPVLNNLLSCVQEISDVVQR
Sequence of UniProt Q8IY84 (whole entry, looked up): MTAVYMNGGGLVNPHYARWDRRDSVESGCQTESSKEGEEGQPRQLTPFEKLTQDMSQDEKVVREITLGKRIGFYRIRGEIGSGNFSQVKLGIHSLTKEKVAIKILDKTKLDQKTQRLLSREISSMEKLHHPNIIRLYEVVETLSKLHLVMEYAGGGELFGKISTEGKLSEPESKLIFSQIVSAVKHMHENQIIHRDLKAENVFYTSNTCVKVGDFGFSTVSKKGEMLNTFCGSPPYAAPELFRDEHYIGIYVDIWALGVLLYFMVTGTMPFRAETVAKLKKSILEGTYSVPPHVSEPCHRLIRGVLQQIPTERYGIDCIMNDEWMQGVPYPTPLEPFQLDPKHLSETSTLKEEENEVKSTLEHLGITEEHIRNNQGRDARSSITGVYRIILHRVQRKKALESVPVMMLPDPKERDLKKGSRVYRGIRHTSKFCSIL

Series 1
Host: mouse
Medium: microsomes or S9
Tested at: 2 µM
Time: 0.5 h
With `COn1c(Br)c(Br)c(Br)c1C(=O)Nc1ccc(Br)cc1` the remaining compound was 30.4%.
The remaining compound of `c1ccc(-c2csc(-c3nc(-c4cccs4)cs3)n2)cc1` is reported as 50.2%.
The remaining compound of `COCc1cc(C)nc2sc(-c3nc(N)nc(N(C)C)n3)c(N)c12` is reported as 0.172%.
With `N=c1n(CCN2CCCCC2)c2ccccc2n1CC(O)COc1ccccc1` (stereo not drawn) the remaining compound was 0.0359%.
For `CC1(C)C[C@H](O)[C@@H](n2/c(=N/C#N)[nH]c3ccccc32)c2cccc([N+](=O)[O-])c2O1`, the remaining compound was over 99.9%.
For `O=C(Nc1ccc2nc(N3CCC(N4CCCCC4)CC3)cc(C(=O)O)c2c1)c1ccccc1F`, the remaining compound was over 100%.
The remaining compound of `O=C(NCc1cc2n(n1)CCNC2)c1cccc(OCc2cccc(F)c2)c1` is reported as 12.8%.
The remaining compound of `CN1CCN(CC2COc3cc4ncnc(Nc5ccc(F)c(Cl)c5)c4cc3O2)CC1` (stereo not drawn) is reported as 77.4%.

Series 2
Compound: O=C(O)[C@@H]1[C@@H](Cn2nnc3ccccc3c2=O)CC[C@H]1C(=O)c1ccc(OCCC2CCOCC2)cc1
Technique: competition with immobilised ligand
Tested at: 1 µM
The remaining binding was 96% (STK39 (Homo sapiens, UniProt Q9UEW8); cell-free assay).
The remaining binding was 79% (SGK2 (Homo sapiens, UniProt Q9HBY8); cell-free assay).
FLT3 (Homo sapiens, UniProt P36888); cell-free assay — remaining binding: 100%.
It gave 90% for remaining binding (EGFR (Homo sapiens, UniProt P00533, G719C); cell-free assay).
The remaining binding was 100% (RET (Homo sapiens, UniProt P07949, V804M); cell-free assay).
The remaining binding was 100% (KIT (Homo sapiens, UniProt P10721, V559D); cell-free assay).
It gave 73% for remaining binding (NIM1K (Homo sapiens, UniProt Q8IY84); cell-free assay).
It gave 84% for remaining binding (PIK3CA (Homo sapiens, UniProt P42336, H1047L); cell-free assay).
The remaining binding was 87% (PLK3 (Homo sapiens, UniProt Q9H4B4); cell-free assay).
For PIK3C2G (Homo sapiens, UniProt O75747); cell-free assay: remaining binding read 95%.
It gave 82% for remaining binding (IRAK1 (Homo sapiens, UniProt P51617); cell-free assay).
PIK3CA (Homo sapiens, UniProt P42336, M1043I); cell-free assay — remaining binding: 100%.
For CSNK2A2 (Homo sapiens, UniProt P19784); cell-free assay: remaining binding read 88%.
The remaining binding was 100% (PRKD1 (Homo sapiens, UniProt Q15139); cell-free assay).
It gave 99% for remaining binding (MAPK11 (Homo sapiens, UniProt Q15759); cell-free assay).
MAK (Homo sapiens, UniProt P20794); binding — remaining binding: 78%.
It gave 91% for remaining binding (MAP3K4 (Homo sapiens, UniProt Q9Y6R4); cell-free assay).
The remaining binding was 79% (Tyrosine-protein kinase JAK1, JH1 (JAK1, Homo sapiens, UniProt P23458); cell-free assay).
It gave 90% for remaining binding (ULK2 (Homo sapiens, UniProt Q8IYT8); cell-free assay).
The remaining binding was 87% (PIKFYVE (Homo sapiens, UniProt Q9Y2I7); cell-free assay).
The remaining binding was 92% (ABL2 (Homo sapiens, UniProt P42684); cell-free assay).
It gave 91% for remaining binding (HIPK1 (Homo sapiens, UniProt Q86Z02); cell-free assay).
For STK32B (Homo sapiens, UniProt Q9NY57); cell-free assay: remaining binding read 100%.
MYLK2 (Homo sapiens, UniProt Q9H1R3); cell-free assay — remaining binding: 100%.

Series 3
Cell line: A-375
Tested at: 100 µM
Time: 18 h
`O=C(CCCN1CC=C(n2c(=O)[nH]c3ccccc32)CC1)c1ccc(F)cc1` has a viability of 57.1%.
`O=C(O)CCn1c2c(c3ccccc31)C[C@H](NS(=O)(=O)c1ccc(F)cc1)CC2` has a viability of 107%.
With `CC[C@H](Nc1ncnc2[nH]cnc12)c1nc2cccc(F)c2c(=O)n1-c1ccccc1` the viability was 93.2%.
For `CN1C[C@@H]2C[C@H]1CN2c1cc2c(cc1F)c(=O)c(C(=O)O)cn2C1CC1`, the viability was 75%.
`COc1cc(NC(C)CCCN)c2ncccc2c1` (stereo not drawn) has a viability of 8.29%.
`CNCc1cc(-c2ccccc2F)n(S(=O)(=O)c2cccnc2)c1` has a viability of 97.5%.
`Cc1cc(N)c2ccccc2[n+]1CCCCCCCCCC[n+]1c(C)cc(N)c2ccccc21` gave a viability of 40.6%.
`CC#C[C@]1(O)CC[C@H]2[C@@H]3CCC4=CC(=O)CCC4=C3[C@@H](c3ccc(N(C)C)cc3)C[C@@]21C` has a viability of 49.3%.

Series 4
Target: Calcium/calmodulin-dependent protein kinase type II subunit alpha (CAMK2A, Homo sapiens, UniProt Q9UQM7)
Sequence of UniProt Q9UQM7 (whole entry, looked up): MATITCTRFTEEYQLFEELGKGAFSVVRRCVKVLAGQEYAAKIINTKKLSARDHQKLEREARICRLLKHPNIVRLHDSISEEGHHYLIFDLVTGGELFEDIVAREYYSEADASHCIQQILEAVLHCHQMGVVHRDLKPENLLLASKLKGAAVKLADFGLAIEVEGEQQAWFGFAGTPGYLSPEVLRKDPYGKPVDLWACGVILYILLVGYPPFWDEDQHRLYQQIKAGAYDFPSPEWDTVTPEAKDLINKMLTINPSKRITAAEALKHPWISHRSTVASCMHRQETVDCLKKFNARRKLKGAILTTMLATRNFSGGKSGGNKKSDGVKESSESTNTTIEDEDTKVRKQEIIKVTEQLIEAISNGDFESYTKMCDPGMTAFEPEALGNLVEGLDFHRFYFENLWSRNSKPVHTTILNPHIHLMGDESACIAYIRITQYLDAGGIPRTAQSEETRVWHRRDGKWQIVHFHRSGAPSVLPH
Observed: enzyme activity
Action: inhibitor
Tested at: 10 µM
`Oc1cc(O)c2c(c1)O[C@@]1(c3ccc(O)c(O)c3)Oc3cc(O)c4c(c3[C@@H]2[C@H]1O)O[C@H](c1ccc(O)c(O)c1)[C@@H](O)C4` has an inhibition of -30%.
`OCC1=C[C@@H](O)[C@]2(O[C@@H]3O[C@H](CO)[C@@H](O)[C@H](O)[C@H]3O)C=CO[C@@H](O[C@@H]3O[C@H](CO)[C@@H](O)[C@H](O)[C@H]3O)[C@H]12` gave an inhibition of 8%.
With `CCCN1C[C@H](CSC)C[C@@H]2c3cccc4[nH]cc(c34)C[C@H]21` the inhibition was -3%.
`C[C@@H]1CC[C@H]2C(C)(C)[C@H]3C[C@@]12CC[C@@]3(C)O` gave an inhibition of 0%.
With `COC(=O)CC(C)=O` the inhibition was -7%.
With `O=C1CC(c2ccc(O)cc2)Oc2ccccc21` (stereo not drawn) the inhibition was -17%.
The inhibition of `NC(=O)CC[C@@H](N)C(=O)O` is reported as -5%.
`COc1c(O[C@@H]2O[C@H](C(=O)O)[C@@H](O)[C@H](O)[C@H]2O)cc(O)c2c(=O)cc(-c3ccccc3)oc12` gave an inhibition of -9%.
`C[C@]1(O)C[C@@H](O)[C@]2(O)C=CO[C@@H](O[C@@H]3O[C@H](CO)[C@@H](O)[C@H](O)[C@H]3O)[C@@H]21` has an inhibition of -13%.
`CC(=O)/C=C/C1=C(C)CCCC1(C)C` gave an inhibition of -25%.
`Cc1nc2ccccc2c(=O)[nH]1` gave an inhibition of -2%.
